Assay results gathered from unrelated publications.
± gives the spread as reported.

Compound	organism	test	system	setting	scale	quantity	result
CC(=O)[O-].CN1CCN2CCN(CC1)CCN(Cc1ccccc1)CC2.F[P-](F)(F)(F)(F)F.[Cu+2]	Leishmania donovani	parasite growth, resazurin		72 h, amastigote		IC90	> 20 µM
CCc1nn(C)c2nc(-c3ccc(C(=O)O)cc3)nc(NCc3ccccc3)c12	Cryptosporidium parvum		NSG mouse	oral, 50 mg/kg twice daily, 7 days		parasite shedding reduction	~99%
COc1cc(-c2ccc3oc(-c4ccsc4)c(C#CC4(O)CCCCC4)c3c2)cc(OC)c1OC	hepatitis C virus	viral entry, HCV pseudoparticle entry	genotype 1a	10 µM	relative to: DMSO	remaining activity	80.3%
c1ccc(CN2CCNCCN(Cc3ccccc3)CCNCC2)cc1	Leishmania donovani	parasite growth	THP-1 macrophages	intracellular amastigotes		IC90	2.8 µM
CC1N=C(CCCCCCCCCCC2=CC(CCCCCCCCCCC3=NC(C)C(O)CC3)C3CCCN3C2)CCC1O (stereo not shown)	Leishmania donovani	Alamar Blue	promastigotes	72 h, 26 °C		IC90	1.67 ± 0.21 µg/mL
[Cl-].[Cl-].[Ru+2].c1ccc2nc3c4cccnc4c4ncccc4c3nc2c1.c1ccncc1.c1ccncc1.c1ccncc1.c1ccncc1	Enterococcus faecalis		VRE ATCC 51299	LED irradiation 470 nm		MIC90	16 µM
CC(=O)[O-].F[P-](F)(F)(F)(F)F.[Cu+2].c1ccc(CN2CCN3CCN(CC2)CCN(Cc2ccccc2)CC3)cc1	Leishmania donovani	parasite growth	THP-1 macrophages	intracellular amastigotes		IC90	> 20 µM
CN1CC(=O)N=C1N.C[C@H](CCC(=O)O)[C@H]1CC[C@H]2[C@@H]3[C@H](O)C[C@@H]4C[C@H](O)CC[C@]4(C)[C@H]3CC[C@]12C	Enterococcus faecalis		TISTR 927	1 mg per disc, 18 to 24 h, 37 °C, 6 mm disc		inhibition zone diameter	8.2 ± 0.9 mm
CC[C@H](C)[C@H](NC(=O)[C@H](Cc1c[nH]c2ccccc12)NC(=O)[C@H](CCCNC(=N)N)NC(=O)[C@H](CCC(N)=O)NC(=O)[C@@H](NC(=O)[C@H](Cc1c[nH]c2ccccc12)NC(=O)[C@H](CCCNC(=N)N)NC(=O)[C@H](CCCNC(=N)N)NC(=O)[C@H](C)NC(=O)[C@H](C)NC(=O)[C@H](C)NC(=O)[C@@H](NC(=O)[C@H](CCCCN)NC(=O)[C@@H]1CCCN1C(=O)[C@H](CCCNC(=N)N)NC(=O)[C@H](Cc1c[nH]c2ccccc12)NC(=O)[C@H](CCCNC(=N)N)NC(=O)[C@H](CCCNC(=N)N)NC(=O)[C@@H](NC(=O)[C@H](Cc1c[nH]c2ccccc12)NC(=O)[C@H](CCCNC(=N)N)NC(=O)[C@H](CCC(N)=O)NC(=O)[C@@H](NC(=O)[C@H](Cc1c[nH]c2ccccc12)NC(=O)[C@H](CCCNC(=N)N)NC(=O)[C@@H](N)CCCNC(=N)N)C(C)C)[C@@H](C)CC)C(C)C)C(C)C)C(=O)N[C@@H](CCCNC(=N)N)C(=O)N[C@@H](CCCNC(=N)N)C(=O)N[C@@H](Cc1c[nH]c2ccccc12)C(=O)N[C@@H](CCCNC(=N)N)C(=O)N1CCC[C@H]1C(=O)N[C@@H](CCCCN)C(=O)N[C@H](C(N)=O)C(C)C	Fusarium			25 °C, metabolic activity and growth		inhibitory concentration	0.625 µM
CC[C@H](C)[C@@H]1NC(=O)[C@H](CCC(N)=O)NC(=O)[C@H](CCCCN)NC(=O)[C@H](Cc2ccc(O)cc2)NC(=O)[C@H](CCCNC(=N)N)NC(=O)[C@H](CCCNC(=N)N)NC(=O)[C@@H]2CCCN2C(=O)[C@@H](NC(=O)[C@@H](N)Cc2ccccc2)CSSC[C@@H](C(=O)N[C@@H](CCCCN)C(=O)O)NC(=O)[C@H](CCCCN)NC(=O)[C@H]([C@@H](C)O)NC(=O)CNC(=O)[C@@H]2CCCN2C(=O)[C@H](CC(C)C)NC(=O)CNC(=O)[C@H]([C@@H](C)O)NC(=O)CNC1=O	Escherichia coli		K12 MG1655	MBC, 2 h, pH 7.4, 37 °C, together with: LPS Escherichia coli 026:B6, peptide:LPS 1:1 w/w		antibacterial activity	inhibited
CC(=O)[O-].F[P-](F)(F)(F)(F)F.[Co+2].c1ccc(CN2CCCNCCN(Cc3ccccc3)CCCNCC2)cc1	Leishmania donovani	parasite growth, resazurin		72 h, amastigote		IC90	> 15 µM
C=C(C)[C@@H]1CC[C@]2(CO)CC[C@]3(C)[C@H](CC[C@@H]4[C@@]5(C)CCCNC(C)(C)[C@@H]5CC[C@]43C)[C@@H]12	Human papillomavirus 11	viral replication	C-33 A		relative to: CC50 over EC50	selectivity index	< 2
CC1(C)C(C=C(Cl)Cl)C1C(=O)OCc1c(F)ccc(F)c1F (stereo not shown)	Anopheles funestus	glazed tile contact bioassay	FANG susceptible		relative to: permethrin	potency relative to permethrin	≤ 25 fold

A few entries again:
Compound	organism	test	system	setting	scale	quantity	result
CC(=O)[O-].F[P-](F)(F)(F)(F)F.[Co+2].c1ccc(CN2CCCNCCN(Cc3ccccc3)CCCNCC2)cc1	Leishmania donovani	parasite growth, resazurin		72 h, amastigote		IC90	> 15 µM
